Experimental data of several laboratories.
Compare with care: the assays were run in different laboratories. ± gives the spread as reported.
Cell line: HCT-116

Substance | assay | setting | endpoint | value
N.N.[Cl][Pt][Cl] | cell viability, MTS | 24 h | IC50 | 53800 ± 2100 nM
C[C@H](NCCc1ccc(O)cc1)C(=O)c1ccc(OCc2ccccc2)cc1 | cell viability, MTT | 72 h | IC50 | 24700 nM
O=C1[O][Pt]2([NH][C@@H]3CCCC[C@H]3[NH]2)[O]C1=O | cell viability, MTS | 72 h | IC50 | 1000 nM
CCCCNNC(=O)c1ccc(Br)cc1 | HDAC activity, HDAC-Glo I/II |  | IC50 | 1800 nM
CC[C@H](C)[C@H](NC(=O)[C@@H](N)Cc1ccccc1)C(=O)NCC(=O)N[C@H](C(=O)N[C@@H](CC(C)C)C(=O)N[C@H](C(=O)N1CCC[C@H]1C(=O)N[C@@H](CC(C)C)C(=O)N[C@@H](C)C(=O)N[C@@H](CC(C)C)C(=O)NCC(=O)N[C@@H](C)C(=O)N[C@@H](CC(C)C)C(=O)N[C@H](C(=O)N[C@@H](CCCCN)C(=O)N[C@@H](CC(C)C)C(=O)N[C@@H](Cc1ccccc1)C(=O)N[C@@H](CCCCN)C(N)=O)[C@@H](C)O)[C@@H](C)CC)[C@@H](C)O | cell growth or viability, CCK-8 | 24 h | IC50 | 8350 nM
Cc1c(N)nc([C@H](CC(N)=O)NC[C@H](N)C(N)=O)nc1C(=O)N[C@H](C(=O)N[C@H](C)[C@@H](O)[C@H](C)C(=O)N[C@H](C(=O)NCCc1nc(-c2nc(C(=O)NCCCNCCCCN)cs2)cs1)[C@@H](C)O)[C@@H](O[C@@H]1O[C@@H](CO)[C@@H](O)[C@H](O)[C@@H]1O[C@@H]1O[C@H](CO)[C@@H](O)[C@H](OC(N)=O)[C@@H]1O)c1cnc[nH]1 |  |  | EC50 | 300 ± 600 nM
jasplakinolide B | cell growth |  | IC50 | 140 nM
Cn1ncnc2c(=O)n(C)c(=O)nc1-2 | cell growth or viability | 48 h | IC50 | ~300 nM

Repeated from above:
Substance | assay | setting | endpoint | value
O=C1[O][Pt]2([NH][C@@H]3CCCC[C@H]3[NH]2)[O]C1=O | cell viability, MTS | 72 h | IC50 | 1000 nM
